Experimental data of several laboratories.
Every numbered part comes from another study and shows a few of its results, in no order.
Sequence of UniProt P78362 (whole entry, looked up): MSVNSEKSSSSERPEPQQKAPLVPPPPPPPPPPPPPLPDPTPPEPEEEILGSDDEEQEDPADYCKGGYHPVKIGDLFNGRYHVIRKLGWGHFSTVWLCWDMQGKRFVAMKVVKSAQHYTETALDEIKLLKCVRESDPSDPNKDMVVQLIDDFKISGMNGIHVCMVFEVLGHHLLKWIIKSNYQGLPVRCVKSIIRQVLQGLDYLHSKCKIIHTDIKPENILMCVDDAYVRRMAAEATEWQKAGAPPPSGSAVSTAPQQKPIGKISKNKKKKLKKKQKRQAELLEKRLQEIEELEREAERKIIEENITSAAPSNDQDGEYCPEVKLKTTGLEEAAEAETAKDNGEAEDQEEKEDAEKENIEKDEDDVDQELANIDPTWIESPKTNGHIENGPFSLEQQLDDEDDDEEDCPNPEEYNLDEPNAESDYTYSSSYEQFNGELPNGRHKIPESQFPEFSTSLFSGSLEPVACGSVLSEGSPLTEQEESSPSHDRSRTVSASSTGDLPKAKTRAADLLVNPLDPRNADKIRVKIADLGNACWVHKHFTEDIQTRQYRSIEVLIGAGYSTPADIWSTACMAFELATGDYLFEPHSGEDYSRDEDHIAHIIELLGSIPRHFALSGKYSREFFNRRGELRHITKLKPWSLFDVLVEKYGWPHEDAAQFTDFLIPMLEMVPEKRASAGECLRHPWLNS
Sequence of UniProt Q13188 (whole entry, looked up): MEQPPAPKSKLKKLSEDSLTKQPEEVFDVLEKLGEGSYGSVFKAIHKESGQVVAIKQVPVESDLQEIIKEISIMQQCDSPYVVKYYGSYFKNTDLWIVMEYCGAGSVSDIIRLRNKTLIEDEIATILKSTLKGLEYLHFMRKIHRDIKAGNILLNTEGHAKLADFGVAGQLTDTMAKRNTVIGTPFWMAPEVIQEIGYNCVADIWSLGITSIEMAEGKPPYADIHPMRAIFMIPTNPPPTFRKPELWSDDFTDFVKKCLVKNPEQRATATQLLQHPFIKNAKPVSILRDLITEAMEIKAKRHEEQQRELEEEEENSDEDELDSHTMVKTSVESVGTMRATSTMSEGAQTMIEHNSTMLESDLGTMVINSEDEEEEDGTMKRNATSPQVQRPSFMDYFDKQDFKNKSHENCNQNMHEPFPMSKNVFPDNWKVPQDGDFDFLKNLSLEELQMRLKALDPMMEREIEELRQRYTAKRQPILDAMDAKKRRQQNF
Sequence of UniProt Q00526 (whole entry, looked up): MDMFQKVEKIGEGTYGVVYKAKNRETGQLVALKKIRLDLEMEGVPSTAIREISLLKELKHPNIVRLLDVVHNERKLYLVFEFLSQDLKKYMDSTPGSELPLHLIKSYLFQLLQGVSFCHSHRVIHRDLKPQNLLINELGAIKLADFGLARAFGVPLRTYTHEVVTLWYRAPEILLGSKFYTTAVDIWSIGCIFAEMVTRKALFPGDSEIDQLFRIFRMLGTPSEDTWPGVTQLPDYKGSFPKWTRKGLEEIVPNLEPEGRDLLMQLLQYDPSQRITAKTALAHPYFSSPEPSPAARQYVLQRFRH
Sequence of UniProt Q12866 (whole entry, looked up): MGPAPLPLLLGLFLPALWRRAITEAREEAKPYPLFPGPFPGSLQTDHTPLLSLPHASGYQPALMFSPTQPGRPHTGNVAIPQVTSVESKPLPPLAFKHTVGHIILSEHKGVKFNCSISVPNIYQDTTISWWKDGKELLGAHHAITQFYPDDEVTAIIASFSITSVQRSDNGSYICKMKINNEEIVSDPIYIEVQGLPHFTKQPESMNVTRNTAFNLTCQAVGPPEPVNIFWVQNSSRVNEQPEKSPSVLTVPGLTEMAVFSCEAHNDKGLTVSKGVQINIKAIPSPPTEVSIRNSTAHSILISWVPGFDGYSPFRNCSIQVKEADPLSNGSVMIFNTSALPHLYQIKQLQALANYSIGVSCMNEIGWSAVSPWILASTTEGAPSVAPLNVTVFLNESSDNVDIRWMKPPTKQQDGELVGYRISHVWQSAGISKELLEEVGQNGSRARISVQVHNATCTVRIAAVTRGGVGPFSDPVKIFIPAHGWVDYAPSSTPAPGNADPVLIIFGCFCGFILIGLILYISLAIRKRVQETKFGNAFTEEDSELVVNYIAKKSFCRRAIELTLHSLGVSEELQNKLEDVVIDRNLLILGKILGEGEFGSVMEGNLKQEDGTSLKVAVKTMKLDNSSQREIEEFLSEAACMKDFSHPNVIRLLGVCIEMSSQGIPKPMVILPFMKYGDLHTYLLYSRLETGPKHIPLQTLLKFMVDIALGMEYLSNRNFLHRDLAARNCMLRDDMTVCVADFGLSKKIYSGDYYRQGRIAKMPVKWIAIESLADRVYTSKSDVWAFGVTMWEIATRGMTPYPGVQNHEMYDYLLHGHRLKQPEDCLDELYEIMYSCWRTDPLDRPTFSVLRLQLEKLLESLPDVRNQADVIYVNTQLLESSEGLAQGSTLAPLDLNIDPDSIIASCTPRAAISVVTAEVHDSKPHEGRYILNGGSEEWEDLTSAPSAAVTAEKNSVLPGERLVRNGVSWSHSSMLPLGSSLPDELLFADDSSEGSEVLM
Sequence of UniProt Q92630 (whole entry, looked up): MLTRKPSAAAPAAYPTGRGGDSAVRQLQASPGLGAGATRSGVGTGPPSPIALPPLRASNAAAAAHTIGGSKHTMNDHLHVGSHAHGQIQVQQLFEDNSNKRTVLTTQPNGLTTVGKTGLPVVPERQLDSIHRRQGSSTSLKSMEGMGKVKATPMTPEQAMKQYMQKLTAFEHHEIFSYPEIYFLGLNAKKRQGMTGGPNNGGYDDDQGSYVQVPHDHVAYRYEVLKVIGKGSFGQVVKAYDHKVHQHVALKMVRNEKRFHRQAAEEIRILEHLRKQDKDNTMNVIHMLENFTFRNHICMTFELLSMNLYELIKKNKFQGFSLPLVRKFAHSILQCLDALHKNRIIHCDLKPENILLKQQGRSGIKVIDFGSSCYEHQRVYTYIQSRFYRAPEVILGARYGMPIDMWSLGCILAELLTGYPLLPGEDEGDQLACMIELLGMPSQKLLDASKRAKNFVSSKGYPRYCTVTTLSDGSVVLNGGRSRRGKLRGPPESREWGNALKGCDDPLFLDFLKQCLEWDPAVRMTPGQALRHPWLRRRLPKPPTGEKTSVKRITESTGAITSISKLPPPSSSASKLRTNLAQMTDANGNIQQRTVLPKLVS
Sequence of UniProt Q6P3R8 (whole entry, looked up): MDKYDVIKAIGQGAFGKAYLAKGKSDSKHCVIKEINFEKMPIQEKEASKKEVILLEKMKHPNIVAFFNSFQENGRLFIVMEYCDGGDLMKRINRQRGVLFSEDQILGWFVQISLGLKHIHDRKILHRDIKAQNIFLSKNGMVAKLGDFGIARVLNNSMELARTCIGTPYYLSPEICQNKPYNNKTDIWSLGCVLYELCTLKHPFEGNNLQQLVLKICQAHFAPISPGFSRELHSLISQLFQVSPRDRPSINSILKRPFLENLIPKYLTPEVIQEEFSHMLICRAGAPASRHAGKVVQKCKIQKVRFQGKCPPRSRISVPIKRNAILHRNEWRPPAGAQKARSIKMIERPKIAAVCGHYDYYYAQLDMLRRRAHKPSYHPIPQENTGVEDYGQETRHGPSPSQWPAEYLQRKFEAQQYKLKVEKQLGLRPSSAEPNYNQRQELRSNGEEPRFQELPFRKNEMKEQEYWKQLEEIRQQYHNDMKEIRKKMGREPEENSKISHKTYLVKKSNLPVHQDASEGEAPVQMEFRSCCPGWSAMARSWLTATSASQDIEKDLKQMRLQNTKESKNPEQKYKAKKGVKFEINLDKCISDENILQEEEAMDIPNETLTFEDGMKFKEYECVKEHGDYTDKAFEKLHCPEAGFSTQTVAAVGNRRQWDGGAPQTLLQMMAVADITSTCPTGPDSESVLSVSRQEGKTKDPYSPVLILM
Sequence of UniProt Q9BQI3 (whole entry, looked up): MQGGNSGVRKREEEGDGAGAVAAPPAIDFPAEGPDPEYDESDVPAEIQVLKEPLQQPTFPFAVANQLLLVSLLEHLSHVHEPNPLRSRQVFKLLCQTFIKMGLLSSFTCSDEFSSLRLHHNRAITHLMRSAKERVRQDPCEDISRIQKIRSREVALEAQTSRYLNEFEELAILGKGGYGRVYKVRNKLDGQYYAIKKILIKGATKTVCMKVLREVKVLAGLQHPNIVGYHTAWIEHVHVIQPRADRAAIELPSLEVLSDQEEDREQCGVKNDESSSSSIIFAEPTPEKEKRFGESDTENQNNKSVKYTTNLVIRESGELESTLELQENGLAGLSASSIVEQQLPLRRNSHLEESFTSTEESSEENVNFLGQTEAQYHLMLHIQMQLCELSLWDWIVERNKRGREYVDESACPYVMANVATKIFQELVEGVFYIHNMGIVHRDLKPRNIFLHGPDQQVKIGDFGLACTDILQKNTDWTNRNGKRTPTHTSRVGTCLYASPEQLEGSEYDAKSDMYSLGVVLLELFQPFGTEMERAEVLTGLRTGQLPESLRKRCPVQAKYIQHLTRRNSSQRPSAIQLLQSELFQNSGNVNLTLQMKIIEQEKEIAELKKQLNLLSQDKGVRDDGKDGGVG

Block 1
Effect on: AlphaScreen signal
Technique: AlphaScreen counter screen
Medium: His6 peptide without bromodomain
Tested at: 50 µM
Setting: assay interference check
Measurement: inhibition
Cl.Cl.O=C1c2c(O)ccc(O)c2C(=O)c2c(NCCNCCO)ccc(NCCNCCO)c21: 98.9%
O=C(NCc1ccco1)c1n[nH]c2ccccc12: 6.45%
Nc1nc(Nc2cccc(Cl)c2)sc1C(=O)c1ccc(F)cc1: 46.1%
CCN(CC)Cc1c(-c2ccc(OC)cc2)[nH]c2ncccc12: 1.2%
COc1ccc(C)c(Nc2cc(OCCN3CCOCC3)nc(-n3cnc4ccccc43)n2)c1: 54.3%
COC(=O)CCNc1ccc(O)c2c1C(=O)c1ccccc1C2=O: 85.8%
O=C(Nc1ccc2[nH]nc(-c3ccncc3)c2c1)[C@@H]1CCN(CC(=O)N2CCN(c3ccc(-c4ncccn4)cc3)CC2)C1: -12.1%
CS(=O)(=O)N1CCN(Cc2cc3nc(-c4cccc5[nH]ncc45)nc(N4CCOCC4)c3s2)CC1: 30.1%
Cc1[nH]c(/C=C2\C(=O)Nc3ccccc32)c(C)c1CCC(=O)O: 20%
COCCNCc1ccc(-c2cc3nccc(Oc4ccc(NC(=S)NC(=O)Cc5ccc(F)cc5)cc4F)c3s2)nc1: 43.1%

Block 2
Target: cAMP-dependent protein kinase catalytic subunit alpha (PRKACA, Homo sapiens, UniProt P17612)
Effect on: enzyme activity
Action: inhibitor
Tested at: 0.5 µM
Reference: control
Measurement: remaining activity
CO[C@H]1C[C@@H]2CC[C@@H](C)[C@@](O)(O2)C(=O)C(=O)N2CCCC[C@H]2C(=O)O[C@H]([C@H](C)C[C@@H]2CC[C@@H](O)[C@H](OC)C2)CC(=O)[C@H](C)/C=C(\C)[C@@H](O)[C@@H](OC)C(=O)[C@H](C)C[C@H](C)/C=C/C=C/C=C/1C: 99.8%
COc1ccc(OC)c2c(=S)c3ccccc3[nH]c12: 97.5%
CN(C)c1ccc(C=C2C(=O)Nc3ccccc32)cc1: 104%
N#CC(C#N)=C(N)/C(C#N)=C/c1ccc(O)cc1: 100%
CCOC(=O)c1c(C)[nH]c(/C=C2\C(=O)Nc3ccccc32)c1C: 97.3%
Cc1cccc(-c2[nH]c(C(C)(C)C)nc2-c2ccc3c(c2)OCO3)n1: 102%
Cc1nc(-c2ccccc2)c(-c2ccncc2)o1: 98.9%
O=C(CCCc1ccc(-c2ccccc2F)cc1)Nc1ccc(O)cc1: 99.5%
O=C(O)c1ccc2c3c1cccc3c(=O)n1c3ccccc3nc21: 99.4%
Cn1c2ccccc2c2c3c(c4c5ccccc5n(CCC#N)c4c21)CNC3=O: 83.7%
COc1ccc(C(=O)Nc2sc3c(c2C(N)=O)CCCC3)cc1OC: 102%
NCCNc1ncc(C(N)=O)c(Nc2cccc(C(F)(F)F)c2)n1: 98.6%
C#Cc1cccc(Nc2ncnc3cc(OCCOC)c(OCCOC)cc23)c1: 93.3%
CNC(=O)c1cc(Oc2ccc(NC(=O)Nc3ccc(Cl)c(C(F)(F)F)c3)cc2)ccn1: 92.6%
Nc1ccc2ncnc(NCCc3ccc(Oc4ccccc4)cc3)c2c1: 88.6%

Block 3
SMILES: COCCOc1nc(-c2ccc(Cl)nc2)nc2c1CN(C(=O)c1ncn3ccccc13)CC2
Effect on: cell-free assay
Technique: competition with immobilised ligand
Tested at: 0.1 µM
Measurement: remaining binding
NEK5 (Homo sapiens, UniProt Q6P3R8): 100%
MET (Homo sapiens, UniProt P08581, Y1235D): 100%
MERTK (Homo sapiens, UniProt Q12866): 89%
STK3 (Homo sapiens, UniProt Q13188): 100%
EIF2AK1 (Homo sapiens, UniProt Q9BQI3): 100%
CDK3 (Homo sapiens, UniProt Q00526): 100%
DYRK2 (Homo sapiens, UniProt Q92630): 100%
FLT3 (Homo sapiens, UniProt P36888, K663Q): 100%
SRPK2 (Homo sapiens, UniProt P78362): 100%

Block 4
Compound: COc1ccc(-c2c(Nc3ccccn3)[nH]c3c(C4=CCCCC4)c(-c4ccccc4)nn3c2=O)cc1
Technique: LC-MS/MS
Medium: plasma
Measurement: plasma concentration
refers to: methionine; human cancer patients; QD, dose not given, 0 h, median, cycle 1 day 50: 80300 ng/mL
refers to: methionine; human cancer patients; QD, dose not given, 4 h, median, cycle 1 day 50: 69200 ng/mL
refers to: S-adenosylmethionine; human cancer patients; 200 mg BID, 2 h, median, cycle 1 day 200: 11.8 ng/mL
human; oral, 200 mg twice daily, 6 h, geometric mean: 9740 ng/mL
refers to: methionine; human cancer patients; QD, dose not given, 6 h, median, cycle 1 day 50: 88100 ng/mL
refers to: S-adenosylmethionine; human cancer patients; 50 mg QD, 6 h, median, cycle 1 day 50: 16.8 ng/mL
refers to: methionine; human cancer patients; QD, dose not given, 4 h, mean, cycle 1 day 50: 64100 ng/mL

Excerpt of the above (block 3):
NEK5 (Homo sapiens, UniProt Q6P3R8): 100%
MET (Homo sapiens, UniProt P08581, Y1235D): 100%
MERTK (Homo sapiens, UniProt Q12866): 89%
STK3 (Homo sapiens, UniProt Q13188): 100%
